{"data": "Measured values collected from several papers", "HTR2C": "5-hydroxytryptamine receptor 2C (HTR2C, Homo sapiens, UniProt P28335)", "Htr2c": "5-hydroxytryptamine receptor 2C (Htr2c, Mus musculus, UniProt P34968)", "OPRD1": "Delta-type opioid receptor (OPRD1, Homo sapiens, UniProt P41143)", "tmk": "Thymidylate kinase (tmk, Mycobacterium tuberculosis, UniProt P9WKE1)", "CES2": "Cocaine esterase (CES2, Homo sapiens, UniProt O00748)", "CNR1": "Cannabinoid receptor 1 (CNR1, Homo sapiens, UniProt P21554)", "note": "Lines come from different studies, so protocols differ. Several values in a cell are separate wells, animals, samples, runs or records. pEC50, pIC50, pKd, pKi: −log10 of the molar value.", "chain of UniProt P28335 (whole entry, looked up)": "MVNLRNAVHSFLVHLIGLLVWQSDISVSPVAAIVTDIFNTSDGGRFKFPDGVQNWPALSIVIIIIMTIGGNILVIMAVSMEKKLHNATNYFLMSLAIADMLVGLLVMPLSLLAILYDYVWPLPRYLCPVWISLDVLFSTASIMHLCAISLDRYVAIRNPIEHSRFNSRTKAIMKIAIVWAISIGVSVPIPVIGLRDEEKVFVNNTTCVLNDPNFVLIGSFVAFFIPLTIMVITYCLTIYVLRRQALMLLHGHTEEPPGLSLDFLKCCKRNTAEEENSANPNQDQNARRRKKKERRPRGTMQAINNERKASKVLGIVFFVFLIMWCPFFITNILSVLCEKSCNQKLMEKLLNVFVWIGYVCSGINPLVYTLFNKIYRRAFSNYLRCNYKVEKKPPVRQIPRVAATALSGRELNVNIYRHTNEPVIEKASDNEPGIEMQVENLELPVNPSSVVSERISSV", "chain of UniProt P41143 (whole entry, looked up)": "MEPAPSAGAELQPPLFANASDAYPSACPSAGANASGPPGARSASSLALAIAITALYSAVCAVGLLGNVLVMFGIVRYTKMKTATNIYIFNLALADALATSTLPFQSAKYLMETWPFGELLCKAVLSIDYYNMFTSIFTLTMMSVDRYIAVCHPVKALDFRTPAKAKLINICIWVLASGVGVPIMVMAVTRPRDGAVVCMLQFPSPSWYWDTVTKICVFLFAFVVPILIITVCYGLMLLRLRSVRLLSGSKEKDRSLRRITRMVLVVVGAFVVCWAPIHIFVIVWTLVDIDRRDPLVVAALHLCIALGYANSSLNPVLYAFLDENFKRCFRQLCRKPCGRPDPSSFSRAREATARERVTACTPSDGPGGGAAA", "chain of UniProt P21554 (whole entry, looked up)": "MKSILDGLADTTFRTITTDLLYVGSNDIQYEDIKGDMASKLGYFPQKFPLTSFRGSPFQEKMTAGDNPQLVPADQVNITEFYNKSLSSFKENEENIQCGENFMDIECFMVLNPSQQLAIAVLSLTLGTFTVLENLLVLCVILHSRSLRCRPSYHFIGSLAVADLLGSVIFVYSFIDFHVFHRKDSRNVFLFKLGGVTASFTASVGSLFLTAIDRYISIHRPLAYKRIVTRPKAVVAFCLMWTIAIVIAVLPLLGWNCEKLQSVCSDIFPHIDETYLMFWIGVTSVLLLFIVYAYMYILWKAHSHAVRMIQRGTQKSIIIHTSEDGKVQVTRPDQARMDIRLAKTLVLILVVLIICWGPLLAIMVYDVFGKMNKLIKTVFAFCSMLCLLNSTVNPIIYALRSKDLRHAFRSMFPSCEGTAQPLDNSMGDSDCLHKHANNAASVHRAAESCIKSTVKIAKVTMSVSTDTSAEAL", "chain of UniProt P34968 (whole entry, looked up)": "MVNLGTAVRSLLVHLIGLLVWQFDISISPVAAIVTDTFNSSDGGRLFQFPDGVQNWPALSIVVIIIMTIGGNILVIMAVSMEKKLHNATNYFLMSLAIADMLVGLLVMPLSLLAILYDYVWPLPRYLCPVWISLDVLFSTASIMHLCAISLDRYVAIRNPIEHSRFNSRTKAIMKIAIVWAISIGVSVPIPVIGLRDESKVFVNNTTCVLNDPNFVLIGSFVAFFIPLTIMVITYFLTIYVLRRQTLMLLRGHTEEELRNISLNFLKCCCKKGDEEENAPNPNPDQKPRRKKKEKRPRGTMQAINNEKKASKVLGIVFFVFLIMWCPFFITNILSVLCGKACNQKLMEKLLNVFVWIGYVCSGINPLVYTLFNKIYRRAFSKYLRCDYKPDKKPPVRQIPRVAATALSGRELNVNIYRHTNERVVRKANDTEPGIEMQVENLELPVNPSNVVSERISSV", "chain of UniProt O00748 (whole entry, looked up)": "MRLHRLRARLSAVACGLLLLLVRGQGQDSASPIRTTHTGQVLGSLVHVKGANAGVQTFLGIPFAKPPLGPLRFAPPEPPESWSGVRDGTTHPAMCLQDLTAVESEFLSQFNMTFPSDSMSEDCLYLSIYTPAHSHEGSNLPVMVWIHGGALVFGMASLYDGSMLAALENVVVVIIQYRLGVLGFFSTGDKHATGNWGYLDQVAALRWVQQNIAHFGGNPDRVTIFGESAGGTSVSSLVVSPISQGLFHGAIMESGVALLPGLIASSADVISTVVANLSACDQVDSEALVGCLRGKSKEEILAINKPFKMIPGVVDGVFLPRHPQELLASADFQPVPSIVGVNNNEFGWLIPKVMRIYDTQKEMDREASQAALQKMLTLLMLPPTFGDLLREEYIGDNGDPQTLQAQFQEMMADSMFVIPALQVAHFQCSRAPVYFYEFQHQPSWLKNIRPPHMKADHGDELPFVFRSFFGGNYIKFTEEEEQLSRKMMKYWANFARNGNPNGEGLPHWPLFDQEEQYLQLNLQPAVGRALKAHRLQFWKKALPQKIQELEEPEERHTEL", "chain of UniProt P08172 (whole entry, looked up)": "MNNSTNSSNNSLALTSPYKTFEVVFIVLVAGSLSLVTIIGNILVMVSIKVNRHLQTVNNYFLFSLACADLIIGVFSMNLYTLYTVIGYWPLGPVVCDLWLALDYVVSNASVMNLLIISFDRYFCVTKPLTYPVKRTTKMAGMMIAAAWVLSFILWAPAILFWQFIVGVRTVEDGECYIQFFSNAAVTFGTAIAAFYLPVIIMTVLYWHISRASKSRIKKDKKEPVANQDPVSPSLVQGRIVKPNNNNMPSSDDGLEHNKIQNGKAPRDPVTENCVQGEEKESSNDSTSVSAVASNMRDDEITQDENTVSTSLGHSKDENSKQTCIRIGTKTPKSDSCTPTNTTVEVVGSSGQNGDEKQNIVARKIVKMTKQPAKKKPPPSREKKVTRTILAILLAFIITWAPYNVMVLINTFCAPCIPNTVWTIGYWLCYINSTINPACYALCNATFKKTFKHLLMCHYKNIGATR", "chain of UniProt O15245 (whole entry, looked up)": "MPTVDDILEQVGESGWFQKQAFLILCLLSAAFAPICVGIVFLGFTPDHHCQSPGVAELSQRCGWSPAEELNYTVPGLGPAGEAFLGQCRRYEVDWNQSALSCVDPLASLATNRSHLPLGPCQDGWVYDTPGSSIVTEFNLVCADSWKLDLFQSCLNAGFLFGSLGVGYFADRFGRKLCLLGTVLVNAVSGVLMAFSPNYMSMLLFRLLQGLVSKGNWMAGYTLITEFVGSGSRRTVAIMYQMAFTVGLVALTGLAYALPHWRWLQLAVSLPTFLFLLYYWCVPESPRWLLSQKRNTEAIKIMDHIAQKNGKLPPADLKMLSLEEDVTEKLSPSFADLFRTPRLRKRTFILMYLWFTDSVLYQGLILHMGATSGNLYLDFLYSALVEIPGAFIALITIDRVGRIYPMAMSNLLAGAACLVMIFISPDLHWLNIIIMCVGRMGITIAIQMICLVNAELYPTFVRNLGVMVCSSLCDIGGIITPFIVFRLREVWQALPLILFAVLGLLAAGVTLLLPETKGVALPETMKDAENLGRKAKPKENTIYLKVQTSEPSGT", "chain of UniProt Q61327 (whole entry, looked up)": "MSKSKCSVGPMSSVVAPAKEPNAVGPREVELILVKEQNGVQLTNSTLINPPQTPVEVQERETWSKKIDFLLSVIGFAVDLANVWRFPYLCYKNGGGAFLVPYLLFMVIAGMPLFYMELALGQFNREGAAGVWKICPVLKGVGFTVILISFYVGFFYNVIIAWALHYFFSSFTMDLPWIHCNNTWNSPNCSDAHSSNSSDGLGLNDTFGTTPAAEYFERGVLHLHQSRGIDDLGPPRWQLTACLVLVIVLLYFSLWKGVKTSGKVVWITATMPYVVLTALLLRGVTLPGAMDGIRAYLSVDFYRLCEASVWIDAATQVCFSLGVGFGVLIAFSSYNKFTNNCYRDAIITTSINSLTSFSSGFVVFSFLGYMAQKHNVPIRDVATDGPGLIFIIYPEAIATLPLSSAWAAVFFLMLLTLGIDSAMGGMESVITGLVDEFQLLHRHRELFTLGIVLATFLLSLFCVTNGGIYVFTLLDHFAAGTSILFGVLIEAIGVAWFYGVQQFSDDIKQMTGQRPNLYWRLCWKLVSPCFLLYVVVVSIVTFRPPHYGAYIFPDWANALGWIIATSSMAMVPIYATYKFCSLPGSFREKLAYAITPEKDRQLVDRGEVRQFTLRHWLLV", "chain of UniProt Q15418 (whole entry, looked up)": "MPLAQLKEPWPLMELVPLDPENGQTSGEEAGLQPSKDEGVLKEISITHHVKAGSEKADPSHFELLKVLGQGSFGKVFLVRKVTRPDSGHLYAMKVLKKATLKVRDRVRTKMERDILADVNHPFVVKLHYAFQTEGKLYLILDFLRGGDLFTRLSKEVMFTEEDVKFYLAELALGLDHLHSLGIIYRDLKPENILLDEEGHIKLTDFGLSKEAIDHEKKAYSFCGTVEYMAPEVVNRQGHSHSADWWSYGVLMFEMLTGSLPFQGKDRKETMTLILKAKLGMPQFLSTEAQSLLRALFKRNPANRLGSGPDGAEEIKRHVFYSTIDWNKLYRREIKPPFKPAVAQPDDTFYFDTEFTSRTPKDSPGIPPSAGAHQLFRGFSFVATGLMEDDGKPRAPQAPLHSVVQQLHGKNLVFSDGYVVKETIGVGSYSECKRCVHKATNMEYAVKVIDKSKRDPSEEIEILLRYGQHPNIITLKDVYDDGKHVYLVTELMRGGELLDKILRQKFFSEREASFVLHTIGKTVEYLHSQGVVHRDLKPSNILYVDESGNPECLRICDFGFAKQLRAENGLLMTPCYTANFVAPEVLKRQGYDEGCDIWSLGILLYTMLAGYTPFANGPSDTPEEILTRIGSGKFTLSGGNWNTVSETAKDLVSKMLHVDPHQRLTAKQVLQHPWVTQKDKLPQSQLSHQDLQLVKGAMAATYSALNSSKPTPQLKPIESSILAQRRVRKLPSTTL"}
{"Compound": "CN(C[C@@H]1COCCO1)S(=O)(=O)Nc1ccc2ccc3ncc(-c4cnn(C)c4)cc3c(=O)c2c1", "target": "MET (Homo sapiens, UniProt P08581, C1091S/C1146S/K1232C)", "test": "binding", "measurement": "pKd", "value": 6.93}
{"Compound": "COc1cc(CCNCc2ccccc2)c(OC)cc1C#N", "target": "HTR2C", "test": "calcium signal, agonist", "measurement": "pEC50", "value": 7.09}
{"Compound": "CNC(C)Cc1ccc2c(c1)OCO2 (stereo not shown)", "target": "SLC22A1 (Homo sapiens, UniProt O15245)", "test": "transporter uptake, inhibitor", "measurement": "pKi", "value": 5.74}
{"Compound": "CCC(NCCc1cc(OC)c(C#N)cc1OC)c1ccccc1O (stereo not shown)", "target": "Htr2c", "test": "G protein activation, agonist, BRET", "measurement": "pEC50", "value": 5.51}
{"Compound": "N#Cc1ccc(C(=O)N[C@H]2CC[C@@]3(O)[C@H]4Cc5ccc(O)c6c5[C@@]3(CCN4CC3CC3)[C@H]2O6)s1", "target": "OPRD1", "test": "ligand displacement, radioligand", "setting": "cell membranes", "measurement": "pKi", "value": 7.54}
{"Compound": "CC1=C(C(N)=O)C(c2ccc([N+](=O)[O-])o2)NC(=S)N1 (stereo not shown)", "target": "tmk", "test": "enzyme activity, inhibitor, absorbance", "measurement": "pIC50", "value": 6.72}
{"Compound": "NCCc1ccc(Oc2ccc(O)cc2)c(I)c1", "target": "Slc6a3 (Mus musculus, UniProt Q61327)", "test": "ligand displacement, radioligand", "measurement": "pIC50", "value": 6.14}
{"Compound": "NS(=O)(=O)c1ccc(C(=O)N[C@H]2CC[C@@]3(O)[C@H]4Cc5ccc(O)c6c5[C@@]3(CCN4CC3CC3)[C@H]2O6)s1", "target": "OPRD1", "test": "ligand displacement, radioligand", "setting": "cell membranes", "measurement": "pKi", "value": 7.75}
{"Compound": "O=c1c2cccnc2sn1-c1ccccc1", "target": "PFF0160c (Plasmodium falciparum, UniProt Q08210, E182D)", "test": "enzyme activity, inhibitor, absorbance", "measurement": "pIC50", "value": 6.14}
{"Compound": "NC(=O)c1ccc(C(=O)N[C@H]2CC[C@@]3(O)[C@H]4Cc5ccc(O)c6c5[C@@]3(CCN4CC3CC3)[C@H]2O6)s1", "target": "OPRD1", "test": "ligand displacement, radioligand", "setting": "cell membranes", "measurement": "pKi", "value": 7.91}
{"Compound": "Cc1nnc(N2C(=N)SC(=Cc3ccc(-c4ccc(OC(F)(F)F)cc4)o3)C2=O)s1", "target": "PFF0160c (Plasmodium falciparum, UniProt Q08210)", "test": "enzyme activity, inhibitor, absorbance", "measurement": "pIC50", "value": "< 5.00"}
{"Compound": "CCN1C[C@]2(OC(=O)c3ccccc3NC(C)=O)CC[C@H](OC)[C@@]34[C@@H]2C[C@@H]([C@@H]13)[C@@]1(O)C[C@H](OC)[C@H]2C[C@@H]4[C@]1(O)[C@H]2OC", "target": "CES2", "test": "enzyme activity, inhibitor, fluorescence", "setting": "with preincubation", "measurement": "pIC50", "value": "< 4.00"}
{"Compound": "O[C@H]1[C@H](O)[C@@H](O)CN2CC[C@H](O)[C@H]12", "target": "Toxin B (tcdB, Clostridioides difficile, UniProt P18177)", "test": "enzyme activity, inhibitor", "measurement": "pKi", "value": 2.15}
{"Compound": "[2H]c1c([2H])c([C@]2([2H])CCCN2C(=O)C(C)(C)Oc2ccc3cn[nH]c3c2)c([2H])c([2H])c1C([2H])([2H])[2H]", "target": "Ribosomal protein S6 kinase alpha-1, N-terminal kinase domain (RPS6KA1, Homo sapiens, UniProt Q15418)", "test": "binding, competition with immobilised ligand", "setting": "1 µM", "measurement": "remaining binding", "value": "91%"}
{"Compound": "CCCCCn1cc(C(=O)C2C(C)(C)C2(C)C)c2ccccc21", "target": "CNR1", "test": "ligand displacement, radioligand", "setting": "cell membranes", "measurement": "pKi", "value": "> 7.52 and 7.54"}
{"Compound": "C[C@]12CC[C@H]3[C@@H](CCC4=CC(=O)CC[C@@]43C)[C@@H]1CC[C@@H]2O", "target": "CES2", "test": "enzyme activity, inhibitor, fluorescence", "setting": "with preincubation", "measurement": "pIC50", "value": "< 4.00"}
{"Compound": "CC1=C(C(N)=O)C(c2ccc([N+](=O)[O-])o2)NC(=O)N1 (stereo not shown)", "target": "tmk", "test": "enzyme activity, inhibitor, absorbance", "measurement": "pIC50", "value": 7.07}
{"Compound": "COc1cc(CCNC(C)c2ccccc2)c(OC)cc1C#N (stereo not shown)", "target": "Htr2c", "test": "G protein activation, agonist, BRET", "measurement": "pEC50", "value": 5.66}
{"Compound": "COC(=O)[C@@H](NC(=O)c1nn(Cc2ccc(F)cc2)c2ccccc12)C(C)(C)C", "target": "CNR1", "test": "β-arrestin recruitment, agonist", "measurement": "pEC50", "value": 8.43}
{"Compound": "COc1ccc(C(=O)N[C@H]2CC[C@@]3(O)[C@H]4Cc5ccc(O)c6c5[C@@]3(CCN4CC3CC3)[C@H]2O6)s1", "target": "OPRD1", "test": "ligand displacement, radioligand", "setting": "cell membranes", "measurement": "pKi", "value": 8.22}
{"Compound": "CC(C)[N+](C)(CCC(C(N)=O)(c1ccccc1)c1ccccc1)C(C)C", "target": "CHRM2 (Homo sapiens, UniProt P08172)", "test": "calcium signal, antagonist", "measurement": "pIC50", "value": 8.00}
{"Compound": "CC(=O)S(=O)(=O)c1ccc(C(=O)N[C@H]2CC[C@@]3(O)[C@H]4Cc5ccc(O)c6c5[C@@]3(CCN4CC3CC3)[C@H]2O6)s1", "target": "OPRD1", "test": "ligand displacement, radioligand", "setting": "cell membranes", "measurement": "pKi", "value": 8.02}
{"Compound": "COc1cc(CCNC(C)c2ccccc2O)c(OC)cc1Br (stereo not shown)", "target": "HTR2C", "test": "G protein activation, agonist, BRET", "measurement": "pEC50", "value": 8.25}
{"Compound": "O=C(N[C@H]1CC[C@@]2(O)[C@H]3Cc4ccc(O)c5c4[C@@]2(CCN3CC2CC2)[C@H]1O5)c1ccc([N+](=O)[O-])s1", "target": "OPRD1", "test": "ligand displacement, radioligand", "setting": "cell membranes", "measurement": "pKi", "value": 7.63}
{"Compound": "COc1cc(CCNC(C)c2ccccc2O)c(OC)cc1C#N (single isomer, unassigned; (+))", "target": "HTR2C", "test": "G protein activation, agonist, BRET", "measurement": "pEC50", "value": 5.68}
{"note": "Some of these lines once more:"}
{"Compound": "COC(=O)[C@@H](NC(=O)c1nn(Cc2ccc(F)cc2)c2ccccc12)C(C)(C)C", "target": "CNR1", "test": "β-arrestin recruitment, agonist", "measurement": "pEC50", "value": 8.43}
{"Compound": "COc1ccc(C(=O)N[C@H]2CC[C@@]3(O)[C@H]4Cc5ccc(O)c6c5[C@@]3(CCN4CC3CC3)[C@H]2O6)s1", "target": "OPRD1", "test": "ligand displacement, radioligand", "setting": "cell membranes", "measurement": "pKi", "value": 8.22}
{"Compound": "CC(C)[N+](C)(CCC(C(N)=O)(c1ccccc1)c1ccccc1)C(C)C", "target": "CHRM2 (Homo sapiens, UniProt P08172)", "test": "calcium signal, antagonist", "measurement": "pIC50", "value": 8.00}
{"Compound": "CC(=O)S(=O)(=O)c1ccc(C(=O)N[C@H]2CC[C@@]3(O)[C@H]4Cc5ccc(O)c6c5[C@@]3(CCN4CC3CC3)[C@H]2O6)s1", "target": "OPRD1", "test": "ligand displacement, radioligand", "setting": "cell membranes", "measurement": "pKi", "value": 8.02}
